Results from different studies.
Parts stem from different laboratories: compare values within a part only. Substitutions count along the parent as printed.

Block 1
Target: Interferon regulatory factor 7, full length, phosphomimetic (IRF7, Homo sapiens, UniProt Q92985, residues 1-503, S101K/S471D/S472D/S475D/S476D/S477D/S483D/S484D/S487D)
Method: protein-binding microarray
Molecule type: double-stranded DNA, one strand shown
Sample: in vitro
Tested at: 250 nM
Setting: 60-bp whole probe
With: salmon DNA 0.4 mg/ml
Relative to: random background probes
Direction: higher = stronger binding
Shared flanks, not repeated: GCCTAGCAC … GTCTTGATTCGCTTGACGCTGCTG
Target sequence (chain): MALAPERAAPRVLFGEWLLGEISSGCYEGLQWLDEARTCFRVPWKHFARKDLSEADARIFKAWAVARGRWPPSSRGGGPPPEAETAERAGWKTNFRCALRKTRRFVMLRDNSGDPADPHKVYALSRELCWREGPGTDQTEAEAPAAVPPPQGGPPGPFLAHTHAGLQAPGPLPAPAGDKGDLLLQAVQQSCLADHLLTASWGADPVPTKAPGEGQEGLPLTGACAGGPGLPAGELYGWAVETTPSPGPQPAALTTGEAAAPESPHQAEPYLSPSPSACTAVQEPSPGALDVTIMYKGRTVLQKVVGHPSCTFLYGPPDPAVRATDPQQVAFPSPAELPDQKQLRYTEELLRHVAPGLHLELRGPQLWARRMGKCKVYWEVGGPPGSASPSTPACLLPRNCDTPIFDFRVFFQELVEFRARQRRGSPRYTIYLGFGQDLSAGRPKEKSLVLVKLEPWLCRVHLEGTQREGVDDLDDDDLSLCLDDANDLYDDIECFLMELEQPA
Strand	log fluorescence
TCAGCTCTCTGGACTGTGACTGTGCTA	-0.396 z-score
GACGGTATCGACTAGCGGGACGTGCTA	-0.285 z-score
GACGATATCGGGTATCGAGGCGTGCTA	-0.25 z-score
TTAGACCTGAGTATCGATTAGTGCTAG	0.815 z-score
TTCTGGTTCCCATTCCAGGGGTGCTAG	1.97 z-score
GACGATTTCAGTCTCTAGACGTGCTAG	0.347 z-score
GACGGTCTCCTTCTCCTAACGTGCTAG	0.367 z-score
GACGATATCTGACTGGAGACGTGCTAG	-0.208 z-score
TTAGGTAGCGACTTTCGGTTAGTGCTA	0.6 z-score
GACCATATCAGTTTCGAGACGTGCTAG	4.49 z-score

Block 2
Target: Prothrombin, mature alpha-thrombin (F2, Homo sapiens, UniProt P00734)
Method: aptamer microarray, sandwich
Molecule type: DNA with 2'F-ANA
Sample: in vitro
Tested at: 200 nM
Setting: whole 15-mer aptamer, many near background
With: Cy3 exosite-II aptamer, 400 nM
Direction: higher = stronger binding
Strand: GGTTGGTGTGGTTGG
Modification	mean fluorescence intensity [a.u.]
2'F-ANA at 1 2 3 4 7 8 11 14 15	85.1
2'F-ANA at 1 4 8 9 11 12	234
2'F-ANA at 1 4 6 7 8 9 10 12 13	74.9
2'F-ANA at 1 3 4 5 6 7 9 11 12 13	64.8
2'F-ANA at 1 2 3 4 5 8 12 13 14 15	52.4
2'F-ANA at 4 5 8 9 10 11 13 14	43.5
2'F-ANA at 4 5 6 9 10 14	42.7

Block 3
Target: CCNB2, cyclin fold, Cln2 fusion (human)
Method: yeast growth competition, sequencing
Sample: yeast
Setting: weak parent motif
Relative to: not given
Direction: higher = stronger binding
Starting sequence: MASTL docking peptide (human); PMIAKNLMCELDE
Variant	normalised enrichment score
PMIKKNLMCELDE [A4K]	1.09
PMIAGNLMCELDE [K5G]	-0.41
PMIAKNQMCELDE [L7Q]	0.109
PMIAKNLMCEKDE [L11K]	0.0665
PMIAKNLMCEQDE [L11Q]	0.00266
PMIAKNLMCELTE [D12T]	1.1
PHIAKNLMCELDE [M2H]	0.768
PKIAKNLMCELDE [M2K]	0.95
PAIAKNLMCELDE [M2A]	0.605
PMIAKNLMCELEE [D12E]	0.75

Other studies, line by line
Substance	target	test	system	setting	how to read	quantity	value
PhoQ, residues 284 288 289 292 302 303 GASLAW	PhoP, residues 12 14 15 18 19 SYFRT (Escherichia coli, UniProt P23836)	Sort-seq, refers to: YFP reporter	E. coli	PhoQ-PhoP variant library, with: 10 µM Mg2+	relative to: high Mg2+ state, higher = stronger signaling	fold induction	0.738

For quick reference, copied from above (block 1):
Strand	log fluorescence
TTAGGTAGCGACTTTCGGTTAGTGCTA	0.6 z-score
TTAGACCTGAGTATCGATTAGTGCTAG	0.815 z-score
GACGATATCGGGTATCGAGGCGTGCTA	-0.25 z-score
